Measurements of several laboratories.
“And” joins repeats or separate records; there may be more than shown. Numbers after ± are the reported error.
APP: Amyloid-beta precursor protein (APP, Homo sapiens, UniProt P05067)
Tripartite terminase subunit 3 C-terminal nuclease domain: Tripartite terminase subunit 3, C-terminal nuclease domain (Human betaherpesvirus 5, UniProt P16732)
nanA: Sialidase A (nanA, Streptococcus pneumoniae, UniProt P62575)

Structure (SMILES)	target	assay	system	setting	inhibition
C=C(C)[C@H]1CN[C@H](C(=O)O)[C@H]1CC(=O)O	kainate glutamate receptor (rat)	radioligand binding	rat brain	1×10 µM	100%
Nc1c2c(nc3c1C(c1ccc(Cl)c(Cl)c1)c1ccc(OCC(=O)c4ccccc4)cc1O3)CCCC2 (stereo not shown)	APP	Aβ42 self-aggregation, inhibitor, thioflavin T fluorescence	–	0.01 µM	11%
Nc1ccc(C(=O)Nc2ccc3c(c2)B(O)OC3)cc1	Genome polyprotein, NS2B-NS3 protease (West Nile virus, UniProt P06935)	enzyme activity, FRET	–	50 µM, added: substrate 50 µM	14 ± 2%
O=c1[nH]c2sc(-c3ccc(F)cc3)cc2c(=O)n1O	Tripartite terminase subunit 3 C-terminal nuclease domain	endonuclease activity, ELISA	–	20 µM, added: dsDNA	100%
C[C@H](C(=O)N[C@H]1COc2ccccc2[C@@H]1S(C)(=O)=O)c1ccc(F)cc1	ADAM17 (Homo sapiens, UniProt P78536)	enzyme activity	–	10 µM, Eurofins selectivity panel	-10%
CN1CCN(c2cc(-c3ccncc3)c(-c3ccc4ccccc4c3)nn2)CC1	CCR7 (Homo sapiens, UniProt P32248)	antagonist, FLIPR	–	10 µM	4.3%
O=C(Nc1ccccc1)Nc1ccc2c(c1)B(O)OC2	Genome polyprotein, NS2B-NS3 protease (West Nile virus, UniProt P06935)	enzyme activity, FRET	–	50 µM, added: substrate 50 µM	≤ 10%
C[C@H]1N=C(c2ccccc2F)c2cc(Br)ccc2-n2cnc(C(=O)O)c21	sigma receptor 1	binding	–	10 µM	4.5 ± 7.3%
Nc1c2c(nc3c1C(c1cccc([N+](=O)[O-])c1)c1ccc(OS(=O)(=O)c4ccc(F)cc4)cc1O3)CCCC2 (stereo not shown)	APP	Aβ42 self-aggregation, inhibitor, thioflavin T fluorescence	–	0.01 µM	3.5%
COc1cc(Nc2ncc(F)c(Nc3ccc4c(n3)NC(=O)C(C)(C)O4)n2)cc(OC)c1OC	FGR (Homo sapiens, UniProt P09769)	KINOMEscan	–	10 µM	96%
O=C(Nc1ccc2c(c1)B(O)OC2)OCc1ccccc1	Genome polyprotein, NS2B-NS3 protease (West Nile virus, UniProt P06935)	enzyme activity, FRET	–	50 µM, added: substrate 50 µM	≤ 10%
O=C1O[C@H]2[C@@H]3OC(=O)c4cc(O)c(O)c(O)c4-c4c(O)c(O)c5oc(=O)c6c(c(O)c(O)c7oc(=O)c4c5c76)-c4c(cc(O)c(O)c4O)C(=O)OC[C@H]3OC(O)[C@@H]2OC(=O)c2cc(O)c(O)c(O)c2-c2c1cc(O)c(O)c2O (mixture of isomers)	PDIA6 (Homo sapiens, UniProt Q15084)	di-eosin-GSSG reductase activity	–	20 µM, 15 min	inhibited
CN1CCN(c2nc(N)c3ccccc3n2)CC1	GABA-A receptor; GABA-A site (alpha1/beta2 interface), with gamma-2 subunit (Homo sapiens, UniProt P14867+P47870)	binding, radioligand binding	–	0.1 µM	8.5%
Cc1sc2c(=O)n(O)c(=O)[nH]c2c1C	Tripartite terminase subunit 3 C-terminal nuclease domain	endonuclease activity, ELISA	–	20 µM, added: dsDNA	100%
O=C1NCN(c2ccccc2)C12CCNCC2	PDE6D (Homo sapiens, UniProt O43924)	enzyme activity, inhibitor	–	5 µM	39.5%
FC(F)(F)c1cccc(Nc2nc(NCCOc3ccccc3)nc3[nH]cnc23)c1	Cyclin-dependent kinase 9, with cyclin T1 (CDK9, Homo sapiens, UniProt P50750)	enzyme activity, inhibitor, Thermo Fisher kinase screening	–	5 µM	7% and 6%
O=C1CN=C(c2ccccc2)c2cc(/N=N/c3ccc(S(=O)(=O)O)cc3)ccc2N1	HTR3A (Homo sapiens, UniProt P46098)	5-HT-induced current, inhibitor, whole-cell patch clamp	CHO cells	50 µM, UV light, holding -30 mV, added: 5-HT	75 ± 3%
Nc1ncnc2c1ncn2[C@@H]1O[C@H](C[C@@H](N)CC[C@H](N)C(=O)O)[C@@H](O)[C@H]1O	Genome polyprotein, NS5 methyltransferase domain (Zika virus, UniProt Q32ZE1)	NS5 enzyme activity, inhibitor	–	6.25 µM	67.7%
O=C(Nc1ccc2c(c1)B(O)OC2)c1cccc(NCc2ccccc2)c1	Genome polyprotein, NS2B-NS3 protease (dengue virus type 2, UniProt P29990)	enzyme activity, FRET	dengue virus serotype 2	50 µM, added: substrate 50 µM	29 ± 4%
CC(=O)N[C@H]1[C@H]([C@H](O)[C@H](O)CO)O[C@@](OC[C@H]2O[C@@H](Oc3ccc([N+](=O)[O-])cc3)[C@H](O)[C@@H](O)[C@H]2O)(C(=O)O)C[C@@H]1O	nanA	–	–	8 µM, pH 6	5.8 ± 6.8%

Structure (SMILES)	target	assay	system	setting	inhibition
Cc1onc(-c2ccc(F)cc2)c1C(=O)Nc1ccc2c(c1)B(O)OC2	Genome polyprotein, NS2B-NS3 protease (dengue virus type 2, UniProt P29990)	enzyme activity, FRET	dengue virus serotype 2	50 µM, added: substrate 50 µM	≤ 10%
CC(=O)N[C@H]1[C@H]([C@H](O)[C@H](O)CO)OC(C(=O)O)=C[C@@H]1NC(C)=O	nanA	–	–	8 µM, pH 6	0.5 ± 6.5%
Nc1c2c(nc3c1C(c1cccc([N+](=O)[O-])c1)c1ccc(OCC(=O)c4ccc(Cl)cc4)cc1O3)CCCC2 (stereo not shown)	APP	Aβ42 self-aggregation, inhibitor, thioflavin T fluorescence	–	100 µM	87%
CCCCCC(=O)Nc1ccc2c(c1)B(O)OC2	Genome polyprotein, NS2B-NS3 protease (West Nile virus, UniProt P06935)	enzyme activity, FRET	–	50 µM, added: substrate 50 µM	≤ 10%
Cn1cccc1-c1cccnc1	DRD5 (Homo sapiens, UniProt P21918)	binding	–	50 µM	-26.4%
Cc1csc2c(=O)n(O)c(=O)[nH]c12	Tripartite terminase subunit 3 C-terminal nuclease domain	endonuclease activity, ELISA	–	20 µM, added: dsDNA	87%
O=C(Nc1cccnn1)N1CCC(=Cc2cccc(Oc3ccc(C(F)(F)F)cn3)c2)CC1	ZAP70 (Homo sapiens, UniProt P43403)	kinase activity, inhibitor	–	10 µM, human, added: poly(Glu,Tyr)	-3%
O=c1cc(-c2ccccc2)oc2c1ccc1occc12	CDK7 (Homo sapiens, UniProt P50613)	enzyme activity, inhibitor	–	10 µM	54%
COc1ccc(N2C(=O)N(c3c(C)cccc3Cl)Cc3cnc(Nc4ccc(C5CCN(C)CC5)cc4OC)nc32)nc1	TAOK3 (Homo sapiens, UniProt Q9H2K8)	kinase activity	–	0.5 µM	9%
OB(O)c1csc2ccccc12	Uncharacterized hydrolase SAUSA300_2518 (Staphylococcus aureus, UniProt Q2FDS6)	enzyme activity, inhibitor	–	50 µM	94.7%
Nc1c2c(nc3c1C(c1ccc(Cl)c(Cl)c1)c1ccc(OCC(=O)c4ccc(Cl)cc4)cc1O3)CCCC2 (stereo not shown)	APP	Aβ42 self-aggregation, inhibitor, thioflavin T fluorescence	–	0.01 µM	18%
O=C(NCc1ccc(B(O)O)cc1)c1cccc(OCc2ccccc2)c1	Genome polyprotein, NS2B-NS3 protease (dengue virus type 2, UniProt P29990)	enzyme activity, FRET	dengue virus serotype 2	50 µM, added: substrate 50 µM	≤ 10%
CC(=O)N[C@H]1[C@H]([C@H](O)[C@H](O)CO)OC(C(=O)O)=C[C@@H]1N	nanA	–	–	8 µM, pH 6	7.9 ± 2.6%
Cc1ncc(C)n2nc(/C=C/c3nc(N4CCCC4)cc(N4CCOCC4)n3)nc12	PDE4D (Homo sapiens, UniProt Q08499)	enzyme activity	–	10 µM	18%
CN(C(=O)n1cnc(-c2ccc[n+]([O-])c2)c1)C1CCCCC1	ADORA1 (Homo sapiens, UniProt P30542)	radioligand binding	–	50 µM, added: [3H]DPCPX	12%
Nc1ccncc1	Voltage-gated potassium channel, KQT; KCNQ2(Kv7.2)/KCNQ3(Kv7.3) (KCNQ3/KCNQ2, Homo sapiens, UniProt O43525+O43526)	ion current, antagonist, automated patch clamp	HEK293	30 µM	-5%
O=C(Nc1ccc2c(c1)B(O)OC2)c1cccc(OCc2ccc(Cl)cc2)c1	Genome polyprotein, NS2B-NS3 protease (dengue virus type 2, UniProt P29990)	enzyme activity, FRET	dengue virus serotype 2	50 µM, added: substrate 50 µM	28 ± 7%
COc1ccc2[nH]c([S+]([O-])Cc3ncc(C)c(OC)c3C)nc2c1 (stereo not shown)	GSTO1 (Homo sapiens, UniProt P78417)	–	–	5 µM	100%
O=c1[nH]c2cc(-c3ccc(F)cc3)sc2c(=O)n1O	Tripartite terminase subunit 3 C-terminal nuclease domain	endonuclease activity, ELISA	–	20 µM, added: dsDNA	93%
O=C(Nc1cnccc1Cl)N1CCN(Cc2ccc3c(c2)OC(F)(F)O3)CC1	dopamine D4.2 receptor, human	binding	–	50 µM, added: [3H]spiperone	30%
